Experimental data gathered from unrelated publications.
Compare with care: the assays were run in different laboratories. Several values in a cell are separate wells, animals, samples, runs or records. ± marks the error that the study gave.

| Compound | target | assay | test system | setting | how to read | quantity | result |
| --- | --- | --- | --- | --- | --- | --- | --- |
| CC[C@H](C)[C@@H]1NC(=O)[C@H](Cc2ccc(O)cc2)NC(=O)[C@H](Cc2ccccc2)NC(=O)[C@H](Cc2ccccc2)NC(=O)[C@H](Cc2ccccc2)NC(=O)CSC[C@@H](C(=O)N[C@@H](Cc2c[nH]cn2)C(N)=O)NC(=O)[C@H](CC(N)=O)NC(=O)[C@H](Cc2c[nH]c3ccccc23)NC1=O | STING1 (Homo sapiens, UniProt Q86WV6, H232R) | thermal stability, DSF | – | 100 µM | – | ΔTm | 7.46 °C |
| O=C(CCCCCCS)Nc1ccccc1 | HDAC8 (Homo sapiens, UniProt Q9BY41) | ITC | Tris buffer | concentration not given, pH 7.5 | – | binding stoichiometry | 1 |
| COC(=O)[C@@]1(C)C=C(C(=O)OC(C)(C)C)C(=O)CC1 | MAPK8 (Homo sapiens, UniProt P45983) | D-peptide binding, inhibitor, FP peptide displacement | – | 1000 µM | lower is stronger displacement | fraction bound | 0.108 |
| CCCCCCCCCCCCCCCC(=O)OCC(CSC[C@H](N)C(=O)N[C@@H](CO)C(=O)N[C@@H](CCCCN)C(=O)N[C@@H](CCCCN)C(=O)N[C@@H](CCCCN)C(=O)N[C@@H](CCCCN)C(=O)NCCCCCC(=O)N[C@@H](CCCCN)C(=O)N[C@@H](CC(C)C)C(=O)N[C@H](C(=O)N[C@@H](Cc1ccccc1)C(=O)N[C@@H](Cc1ccccc1)C(=O)N[C@@H](Cc1ccc2ccccc2c1)C(=O)O)C(C)C)OC(=O)CCCCCCCCCCCCCCC (stereo partly shown) | Amyloid-beta precursor protein, fibrillar amyloid-beta (APP, Homo sapiens, UniProt P05067) | TEM | – | 2.0 eq, 5 h, fibril 1, together with: APP 20 µM | – | fibril diameter | 97.8 nm |
| Cc1ccc(C(=O)Nc2ccc(CN3CCN(C)CC3)c(C(F)(F)F)c2)cc1C#Cc1cnc2cccnn12 | WEE2 (Homo sapiens, UniProt P0C1S8) | target engagement, NanoBRET | human cells | – | – | upper asymptote | 208 |
| N[C@H]1CC[C@H](Nc2nccc(-c3cccnc3Oc3ccc(NC(=O)NC4CC4)c4ccccc34)n2)CC1 | Elongation factor 2 (EEF2, Homo sapiens, UniProt P13639) | kinobead competition pulldown | HEK293/HCT116 lysate mixture | 10 µM, 1 h, 4 °C | lower = stronger competition | log2 LFQ intensity | 25.8 and 26.1 and 25.9 |
| Cc1cc(C)cc(COc2cc3c(cc2OCc2cc(C)cc(C)c2)C2CC(O)(Cc4cn(CCOCCOCCNC(=O)CCCCC5SCC6NC(=O)NC65)nn4)CC(C)N2CC3)c1 (stereo not shown) | Basigin (BSG, Homo sapiens, UniProt P35613) | biotinylated probe pull-down | – | 10 µM probe | relative to: heavy over light | SILAC ratio | 2.06 |
| CCC1(CC)C(=O)N(c2cccc(CN3CCN(Cc4ccc(Br)c5ccccc45)CC3)c2)C1=O.O=C(O)C(F)(F)F | Dipeptidyl peptidase 8 (Homo sapiens, UniProt Q6V1X1) | enzyme activity, inhibitor | – | 5 µM | – | activity vs control | 7.3% |
| CC(=O)N[C@H]1[C@H]([C@H](O)[C@H](O)CNC(=O)c2ccc(-c3ccccc3)cc2)O[C@@](OCc2cn(CC(O)Cn3c([N+](=O)[O-])cnc3C)nn2)(C(=O)O)C[C@@H]1O (stereo partly shown) | CD22 (Homo sapiens, UniProt P20273) | isothermal titration calorimetry | – | concentration not given | – | binding stoichiometry | 1.28 ± 0.07 |
| CCOC(=O)[C@](CC)(CCCSCCOCCOCCNC(=O)OC(C)(C)C)NC(=O)c1ccc(C2CC2)c(Cc2ccc(F)cc2)n1 | Cnr2 (Mus musculus, UniProt P47936) | cAMP, agonist | – | – | – | Emax | 77% |
| CCCCCC(O)/C=C/C=O (stereo not shown) | Glycine--tRNA ligase (Homo sapiens, UniProt P41250) | acylphosphate-ATP probe SILAC-ABPP, item: GARS | ZAK-transfected HEK293T | 100 µM, together with: acylphosphate-ATP probe | relative to: DMSO over compound-treated | probe labelling ratio | 0.62 |
| O=C1c2sc(-c3ccc(N4CCC(CO)CC4)nc3F)nc2CCN1c1cccnc1 | TAR DNA-binding protein 43, aggregated (TARDBP, Homo sapiens, UniProt Q13148) | radioligand binding | human, FTLD-TDP type B extract | together with: radioligand 18.97 nM | – | specific binding | 3.97 nM and 5.1 nM |
| Cc1cn(CC(=O)N(CC(=O)N[C@H]2COC[C@@H]2N(CC(=O)NCCOCCOCC(N)=O)C(=O)Cn2cnc3c(N)ncnc32)[C@H]2COC[C@@H]2NC(=O)CN(C(=O)Cn2cnc3c(N)ncnc32)[C@H]2COC[C@@H]2NC(=O)CN(C(=O)Cn2cnc3c(=O)[nH]c(N)nc32)[C@H]2COC[C@@H]2NC(=O)CN(C(=O)Cn2cc(C)c(=O)[nH]c2=O)[C@H]2COC[C@@H]2NC(=O)CN(C(=O)Cn2cnc3c(=O)[nH]c(N)nc32)[C@H]2COC[C@@H]2NC(=O)CN(C(=O)Cn2cc(C)c(=O)[nH]c2=O)[C@H]2COC[C@@H]2NC(=O)CN(C(=O)Cn2cnc3c(N)ncnc32)[C@H]2COC[C@@H]2NC(=O)CN(C(=O)Cn2cnc3c(=O)[nH]c(N)nc32)[C@H]2COC[C@@H]2N)c(=O)[nH]c1=O | complementary RNA | duplex formation, UV melting curve fit | PBS | 1 µM, 298 K | – | ΔG | -18 ± 0.1 kcal/mol |

A few entries again:
| Compound | target | assay | test system | setting | how to read | quantity | result |
| --- | --- | --- | --- | --- | --- | --- | --- |
| CC(=O)N[C@H]1[C@H]([C@H](O)[C@H](O)CNC(=O)c2ccc(-c3ccccc3)cc2)O[C@@](OCc2cn(CC(O)Cn3c([N+](=O)[O-])cnc3C)nn2)(C(=O)O)C[C@@H]1O (stereo partly shown) | CD22 (Homo sapiens, UniProt P20273) | isothermal titration calorimetry | – | concentration not given | – | binding stoichiometry | 1.28 ± 0.07 |
